# Experimental data from different studies.
# Lines come from different studies, so protocols differ.
# Target: Receptor tyrosine-protein kinase erbB-2 (ERBB2, Homo sapiens, UniProt P04626)
SMILES,assay,system,setting,scale,endpoint,result
Cc1cccc(O[C@H]2CCC[C@@H](C(C)CNCc3ccncc3)C2)c1 (relative stereo),"enzyme activity, inhibitor",,1 µM,,inhibition,-4%
CN1CCN(Cc2ccc(-c3ccc(CO[C@H]4CCC[C@@H]4NC(=O)c4cc(-c5cnn(C)c5)cnc4N)cc3)cc2)CC1,"enzyme activity, inhibitor",,0.1 µM,,inhibition,-7%
COc1ccc(NC(=O)Nc2ccc3c(c2)C(=O)N(C(C)CO)CC(C)C(CN(C)Cc2ccc4c(c2)OCO4)O3)cc1 (stereo not drawn),"binding, competition with immobilised ligand",,10 µM,,remaining binding,100%
C=CC(=O)Nc1cccc(-c2cnc3[nH]cc(C(=O)NC(C)(C)C)c3n2)c1,"enzyme activity, inhibitor",,0.1 µM,,inhibition,-7%
Cc1ccc(-c2c(/C=C(\C#N)C(=O)NC(C)C)n(CCCO)c3ncnc(N)c23)cc1,"cell-free assay, competition with immobilised ligand",,1 µM,,remaining binding,49%
CC[C@H](C)[C@H](NC(=O)[C@H](CCCCNC(=O)CN(CCNC(=O)CN(CCNC(=O)CN(CCNC(=O)CN(CCNC(=O)[C@H](CCCNC(=N)N)NC(C)=O)C(=O)Cn1ccc(N)nc1=O)C(=O)Cn1cnc2c(=O)[nH]c(N)nc21)C(=O)Cn1cnc2c(=O)[nH]c(N)nc21)C(=O)Cn1ccc(N)nc1=O)NC(=O)[C@H](C)NC(=O)[C@H](CCCNC(=N)N)NC(=O)[C@H](CCCCN)NC(=O)[C@H](CCC(N)=O)NC(=O)[C@H](CCC(N)=O)NC(=O)[C@H](CC(N)=O)NC(=O)[C@@H](NC(=O)[C@H](CC(C)C)NC(=O)[C@H](CC(N)=O)NC(=O)[C@@H]1CCCN1C(=O)[C@H](CC(=O)O)NC(=O)[C@H](CC(C)C)NC(=O)[C@H](C)NC(=O)[C@H](CS)NC(=O)[C@H](CCCC(=O)NCCN(CC(=O)NCCN(CC(=O)NCCN(CC(=O)NCCN(CC(N)=O)C(=O)Cn1cnc2c(=O)[nH]c(N)nc21)C(=O)Cn1ccc(N)nc1=O)C(=O)Cn1ccc(N)nc1=O)C(=O)Cn1cnc2c(=O)[nH]c(N)nc21)NC(=O)[C@H](Cc1c[nH]c2ccccc12)NC(=O)[C@H](Cc1ccc(O)cc1)NC(=O)[C@H](CCCNC(=N)N)NC(=O)[C@H](CC(N)=O)NC(=O)[C@H](CCCNC(=N)N)NC(=O)[C@H](CC1CCCCC1)NC(=O)[C@H](CCC(=O)O)NC(=O)[C@H](CCCCN)NC(=O)[C@H](CO)NC(=O)[C@H](Cc1ccccc1)NC(C)=O)[C@@H](C)O)C(=O)N[C@@H](CCCNC(=N)N)C(=O)N[C@@H](CO)C(=O)N[C@H](C(=O)N[C@@H](Cc1ccc(O)cc1)C(=O)N[C@@H](CCC(=O)O)C(=O)N[C@@H](CCC(=O)O)C(N)=O)[C@@H](C)CC,"binding, SPR",,,,kon,2.07e+06 M⁻¹ s⁻¹
COc1cc(OC)c(F)c(/C=C/c2cnc3ccn(S(=O)(=O)c4cn(CCF)cn4)c3n2)c1F,,,100 nM,,inhibition,1.6%
CNC(=O)C[C@H](Cc1ccc(C#N)cc1)NC(=O)c1cc(-c2ccc(CN[C@H](C)c3ccc(C)cc3)o2)ccc1Cl,"enzyme activity, inhibitor",,1 µM,,activity vs control,91%
C=CC(=O)N1CCCC(n2c(=O)c3ncccc3n(Cc3ccc(Oc4ccccc4)cc3)c2=O)C1 (stereo not drawn),"cell-free assay, competition with immobilised ligand",,1 µM,,remaining binding,77%
CCCC[C@H](NC(=O)[C@H](CCC(=O)O)NC(=O)[C@H](CCCCN)NC(=O)[C@H](CO)NC(=O)[C@H](Cc1ccccc1)NC(C)=O)C(=O)N[C@@H](CCCNC(=N)N)C(=O)N[C@@H](CC(N)=O)C(=O)N[C@@H](CCCNC(=N)N)C(=O)N[C@@H](Cc1ccncc1)C(=O)N[C@@H](Cc1c[nH]c2ccccc12)C(=O)N[C@@H](CCCC(=O)NCCN(CC(=O)NCCN(CC(=O)NCCN(CC(=O)NCCN(CC(N)=O)C(=O)Cn1cnc2c(=O)[nH]c(N)nc21)C(=O)Cn1ccc(N)nc1=O)C(=O)Cn1ccc(N)nc1=O)C(=O)Cn1cnc2c(=O)[nH]c(N)nc21)C(=O)N[C@@H](CS)C(=O)N[C@@H](C)C(=O)N[C@@H](CC(C)C)C(=O)N[C@@H](CC(=O)O)C(=O)N1CCC[C@H]1C(=O)N[C@@H](CC(N)=O)C(=O)N[C@@H](CC(C)C)C(=O)N[C@H](C(=O)N[C@@H](CC(N)=O)C(=O)N[C@@H](CCC(N)=O)C(=O)N[C@@H](CCC(N)=O)C(=O)N[C@@H](CCCCN)C(=O)N[C@@H](CCCNC(=N)N)C(=O)N[C@@H](C)C(=O)N[C@@H](CCCCNC(=O)CN(CCNC(=O)CN(CCNC(=O)CN(CCNC(=O)CN(CCNC(=O)[C@H](CCCNC(=N)N)NC(C)=O)C(=O)Cn1ccc(N)nc1=O)C(=O)Cn1cnc2c(=O)[nH]c(N)nc21)C(=O)Cn1cnc2c(=O)[nH]c(N)nc21)C(=O)Cn1ccc(N)nc1=O)C(=O)N[C@H](C(=O)N[C@@H](CCCNC(=N)N)C(=O)N[C@@H](CO)C(=O)N[C@H](C(=O)N[C@@H](Cc1ccc(O)cc1)C(=O)N[C@@H](CCC(=O)O)C(=O)N[C@@H](CCC(=O)O)C(=O)NCC(=O)N[C@@H](CCC(=O)O)C(N)=O)[C@@H](C)CC)[C@@H](C)CC)[C@@H](C)O,"binding, affinity selection mass spectrometry",,"1 h, 4 °C, unit not given",reference: control-subtracted,enrichment,1.53
C=CC(=O)Nc1cc(-c2nn(C3CCN(CCNC(=O)[C@H](C)CCC45CC6CC(CC(C6)C4)C5)CC3)c3ncnc(N)c23)ccc1Oc1ccccc1,"inhibitor, KiNativ profiling",biochemical,2 µM,,inhibition,62.6%
C[C@H]1CN(C(=O)c2cn(-c3ccnc(N)n3)c3cc(C#CC4(O)CCCCC4)ccc23)CCN1,"enzyme activity, inhibitor, FRET",,1 µM,,inhibition,-4%
NC(=O)C[C@H]1CCc2sc3ncnc(O[C@H]4CC[C@H](N5CCOCC5)CC4)c3c21,"enzyme activity, inhibitor",,10 µM,,inhibition,-16%
CNS(=O)(=O)Nc1nccc(Cc2c(C)c3ccc(Oc4ncccc4F)cc3oc2=O)c1F,"binding, competition with immobilised ligand",,10 µM,,remaining binding,61%
CC(C)=CC1OC(C)(C)C2C=C3C(=O)C(Cl)=CC(O)C3C3C(O)C4OC4C(=O)C132 (stereo not drawn),"cell-free assay, competition with immobilised ligand",,10 µM,,remaining binding,80%

# Some of these lines once more:
SMILES,assay,system,setting,scale,endpoint,result
Cc1ccc(-c2c(/C=C(\C#N)C(=O)NC(C)C)n(CCCO)c3ncnc(N)c23)cc1,"cell-free assay, competition with immobilised ligand",,1 µM,,remaining binding,49%
CC[C@H](C)[C@H](NC(=O)[C@H](CCCCNC(=O)CN(CCNC(=O)CN(CCNC(=O)CN(CCNC(=O)CN(CCNC(=O)[C@H](CCCNC(=N)N)NC(C)=O)C(=O)Cn1ccc(N)nc1=O)C(=O)Cn1cnc2c(=O)[nH]c(N)nc21)C(=O)Cn1cnc2c(=O)[nH]c(N)nc21)C(=O)Cn1ccc(N)nc1=O)NC(=O)[C@H](C)NC(=O)[C@H](CCCNC(=N)N)NC(=O)[C@H](CCCCN)NC(=O)[C@H](CCC(N)=O)NC(=O)[C@H](CCC(N)=O)NC(=O)[C@H](CC(N)=O)NC(=O)[C@@H](NC(=O)[C@H](CC(C)C)NC(=O)[C@H](CC(N)=O)NC(=O)[C@@H]1CCCN1C(=O)[C@H](CC(=O)O)NC(=O)[C@H](CC(C)C)NC(=O)[C@H](C)NC(=O)[C@H](CS)NC(=O)[C@H](CCCC(=O)NCCN(CC(=O)NCCN(CC(=O)NCCN(CC(=O)NCCN(CC(N)=O)C(=O)Cn1cnc2c(=O)[nH]c(N)nc21)C(=O)Cn1ccc(N)nc1=O)C(=O)Cn1ccc(N)nc1=O)C(=O)Cn1cnc2c(=O)[nH]c(N)nc21)NC(=O)[C@H](Cc1c[nH]c2ccccc12)NC(=O)[C@H](Cc1ccc(O)cc1)NC(=O)[C@H](CCCNC(=N)N)NC(=O)[C@H](CC(N)=O)NC(=O)[C@H](CCCNC(=N)N)NC(=O)[C@H](CC1CCCCC1)NC(=O)[C@H](CCC(=O)O)NC(=O)[C@H](CCCCN)NC(=O)[C@H](CO)NC(=O)[C@H](Cc1ccccc1)NC(C)=O)[C@@H](C)O)C(=O)N[C@@H](CCCNC(=N)N)C(=O)N[C@@H](CO)C(=O)N[C@H](C(=O)N[C@@H](Cc1ccc(O)cc1)C(=O)N[C@@H](CCC(=O)O)C(=O)N[C@@H](CCC(=O)O)C(N)=O)[C@@H](C)CC,"binding, SPR",,,,kon,2.07e+06 M⁻¹ s⁻¹
